Measurements gathered from unrelated publications.
Compare with care: the assays were run in different laboratories. ± marks the error that the study gave.

CC(/C=C/C=C(\C)C(=O)O)=C\C=C\C=C(C)\C=C\C=C(/C)C(=O)O  solubility (shake-flask; FeSSIF; 1 h, pH 5.8, 37 °C): 6.5 µg/mL
O=C(Nc1ccc([N+](=O)[O-])cc1Cl)c1cc(Cl)ccc1O  solubility (in vitro lipolysis; digested blank lipid formulation; 24 h, pH 6.5, 37 °C): ~30 µg/mL
Cc1ccc(N2C(=O)c3ccccc3NC23C(=O)N(C)c2ccc([N+](=O)[O-])cc23)cc1 (centres unmarked)  solubility (dried DMSO stock; PBS; pH 7.4): 1.8 ± 0.3 µM
Oc1cc(O)c2c(c1)OC(O)(c1ccc(O)c(O)c1)C(O)C2 (centres unmarked)  solubility (aqueous buffer): > 100 µM
COc1cc2c(cc1OC)CN(CCc1ccc(NC(=O)c3cccc4c(=O)c5cccc(OC)c5[nH]c34)cc1)CC2  solubility (Carbitol; 24 h, 37 °C): 1310 ± 50 µg/mL
CN(C)C(=N)NC(=N)N.C[C@H](CCC(=O)O)[C@H]1CC[C@H]2[C@@H]3[C@H](O)C[C@@H]4C[C@H](O)CC[C@]4(C)[C@H]3C[C@H](O)[C@]12C  solubility (Capryol 90 (propylene glycol monocaprylate)): < 5 mg/g
CC[C@H](C)[C@H](NC(=O)[C@H](C)N)C(=O)N[C@H](C(=O)NCC(=O)N[C@@H](CC(C)C)C(=O)N[C@@H](CCSC)C(=O)N[C@H](C(=O)NCC(=O)NCC(=O)N[C@H](C(=O)N[C@H](C(=O)O)C(C)C)C(C)C)C(C)C)[C@@H](C)CC  solubility (filtration; sodium phosphate buffer; 200 µM nominal, pH 7.4): 196 ± 1 µM
C=CC[C@@H]1/C=C(\C)C[C@H](C)C[C@H](OC)[C@H]2O[C@@](O)(C(=O)C(=O)N3CCCC[C@H]3C(=O)O[C@H](/C(C)=C/[C@@H]3CC[C@@H](O)[C@H](OC)C3)[C@H](C)[C@@H](O)CC1=O)[C@H](C)C[C@@H]2OC  solubility (menthol/camphor eutectic microemulsion): > 10000 µg/mL
Cc1ccc(-c2cc(C(F)(F)F)nn2-c2ccc(S(N)(=O)=O)cc2)cc1  solubility (model fasted duodenal solution; pH 6.5): 16 µg/mL
C[C@](N)(Cc1ccc(O)c(O)c1)C(=O)O  solubility (supercritical carbon dioxide; 5 h, 313 K, 12 MPa, density 719.2 kg/m3): 85.6 µg/mL
CCc1ccccc1-c1ccc2c(c1)C1(Nc3ccccc3C(=O)N1c1ccc(C)cc1)C(=O)N2C (centres unmarked)  solubility (dried DMSO stock; PBS; pH 7.4): 0.2 ± 0.1 µM
CCCN(Cc1ccccc1OC)C(=O)c1ccc(F)c(Br)c1  solubility (50 mM phosphate buffer; 12 h, pH 7.4, 37 °C): > 500 µg/mL
CN(C)CCN1C(=O)c2ccccc2NC12C(=O)N(C)c1ccc(Br)cc12 (centres unmarked)  solubility (dried DMSO stock; PBS; pH 7.4): 814 ± 63 µM
COc1cnc(-n2cnc(C)n2)c2[nH]cc(C(=O)C(=O)N3CCN(C(=O)c4ccccc4)CC3)c12  solubility (aqueous buffer; 90 min, pH 7.4, 5% DMSO, prepared at 500 µM): < 47.3 µg/mL
CC[C@@H](C(=O)[C@@H](C)[C@@H](O)[C@H](C)CCc1ccc(C)c(O)c1C(=O)O)[C@H]1O[C@](CC)([C@H]2CC[C@](O)(CC)[C@H](C)O2)C[C@@H]1C  solubility (water; 24 h, pH 8): 759 ± 100 µg/mL
CC(=O)O[C@@]12CO[C@@H]1C[C@H](O)[C@@]1(C)C(=O)[C@H](O)C3=C(C)[C@@H](OC(=O)[C@H](O)[C@@H](NC(=O)OC(C)(C)C)c4ccccc4)C[C@@](O)([C@@H](OC(=O)c4ccccc4)[C@H]21)C3(C)C  solubility (Miglyol 808; 24 h): 52100 ± 840 µg/mL
O=C(O[C@@H]1Cc2c(O)cc(O)cc2O[C@@H]1c1cc(O)c(O)c(O)c1-c1c([C@H]2Oc3cc(O)cc(O)c3C[C@H]2OC(=O)c2cc(O)c(O)c(O)c2)cc(O)c(O)c1O)c1cc(O)c(O)c(O)c1  solubility (aqueous buffer): > 100 µM
COCCN1C(=O)c2ccccc2NC12C(=O)N(C)c1ccc(Br)cc12 (centres unmarked)  solubility (dried DMSO stock; PBS; pH 7.4): 58 ± 16 µM
O=c1cc(-c2cccc3c2Sc2ccccc2S3)oc(N2CCOCC2)c1  solubility (equimolar phosphoric acid, 5% DMSO, 10% encapsin; pH 4): 1000 µg/mL
CC[C@H](C)[C@@H]1NC(=O)[C@H]([C@@H](C)O)NC(=O)[C@H](Cc2ccc(O)cc2)NC(=O)[C@H](CCCNC(=N)N)NC(=O)[C@@H]2CCCN2C(=O)[C@H]2CCCN2C(=O)[C@H]([C@@H](C)O)NC(=O)[C@H](C(C)C)NC(=O)[C@H](C(C)C)NC(=O)[C@H](CCCCN)NC(=O)[C@H](CO)NC(=O)[C@H](CCC(N)=O)NC(=O)[C@H](CO)NC(=O)[C@H](Cc2ccc(O)cc2)NC(=O)[C@H](CO)NC(=O)[C@H](Cc2ccc(O)cc2)NC(=O)[C@@H]2CCCN2C(=O)[C@H](CO)NC(=O)[C@H](CC(C)C)NC(=O)[C@H](CC(C)C)NC(=O)[C@H](C)NC(=O)[C@H](C)NC1=O  solubility (turbidity; PBS; 24 h): 265 µM
CC(=O)O[C@H]1C(=O)[C@@]2(C)[C@H]([C@H](OC(=O)c3ccccc3)[C@]3(O)C[C@H](OC(=O)[C@H](OC(=O)OCc4cc(C(=O)O)ccc4OP(=O)(O)O)[C@@H](NC(=O)c4ccccc4)c4ccccc4)C(C)=C1C3(C)C)[C@]1(OC(C)=O)CO[C@@H]1C[C@@H]2O  solubility (HBSS; 30 s, pH 6.5): 100 µg/mL
O=c1c2cc(O)c(O)cc2oc2cc(O)c([C@@H]3O[C@H](CO)[C@@H](O)[C@H](O)[C@H]3O)c(O)c12  solubility (Tween 80): 35000 ± 3740 µg/mL
CCCCCCCCCc1nc2cc(Cl)ccc2c(=O)n1N  solubility (equilibrium, HPLC-UV; 2% PEG400 + 2% polysorbate 80 in water; >24 h, 37 °C): 231 ± 3.08 µg/mL
Oc1c(Br)cc(Cl)c2cccnc12  solubility (shake-flask; dimethylacetamide; 72 h, room temperature): > 80000 µg/mL
COc1cc(/C=C/C(=O)CC(=O)/C=C/c2ccc(O)c(OC)c2)ccc1O  solubility (Transcutol HP; 48 h, room temperature): 141000 ± 3420 µg/mL
C=CC[C@@H]1/C=C(\C)C[C@H](C)C[C@H](OC)[C@H]2O[C@@](O)(C(=O)C(=O)N3CCCC[C@H]3C(=O)O[C@H](/C(C)=C/[C@@H]3CC[C@@H](O)[C@H](OC)C3)[C@H](C)[C@@H](O)CC1=O)[C@H](C)C[C@@H]2OC  solubility (shake flask; 20% w/v nicotinamide solution; 3 days, 37 °C): 159 ± 8.89 µg/mL
NC(=O)c1[nH]c2ccc(Cl)cc2c1S(=O)(=O)c1ccccc1  solubility (10% w/v BSA in water; 120 h, ambient): 55.9 µg/mL
CSc1cc(C)nc(SC)c1NC(=O)CN1CCN(CCSc2nc3ccccc3[nH]2)CC1.Cl  solubility (0.05 N HCl aqueous; 24 h, pH 1.3): 19000 µg/mL
Oc1ccc(/C=C/c2cc(O)cc(O)c2)cc1  solubility (shake flask; alcohol; 25 °C): 88000 µg/mL

Some of these lines once more:
CC(=O)O[C@@]12CO[C@@H]1C[C@H](O)[C@@]1(C)C(=O)[C@H](O)C3=C(C)[C@@H](OC(=O)[C@H](O)[C@@H](NC(=O)OC(C)(C)C)c4ccccc4)C[C@@](O)([C@@H](OC(=O)c4ccccc4)[C@H]21)C3(C)C  solubility (Miglyol 808; 24 h): 52100 ± 840 µg/mL
CC[C@H](C)[C@H](NC(=O)[C@H](C)N)C(=O)N[C@H](C(=O)NCC(=O)N[C@@H](CC(C)C)C(=O)N[C@@H](CCSC)C(=O)N[C@H](C(=O)NCC(=O)NCC(=O)N[C@H](C(=O)N[C@H](C(=O)O)C(C)C)C(C)C)C(C)C)[C@@H](C)CC  solubility (filtration; sodium phosphate buffer; 200 µM nominal, pH 7.4): 196 ± 1 µM
Oc1c(Br)cc(Cl)c2cccnc12  solubility (shake-flask; dimethylacetamide; 72 h, room temperature): > 80000 µg/mL
C[C@](N)(Cc1ccc(O)c(O)c1)C(=O)O  solubility (supercritical carbon dioxide; 5 h, 313 K, 12 MPa, density 719.2 kg/m3): 85.6 µg/mL
